Measured values collected from several papers.
Compare with care: the assays were run in different laboratories. “And” joins repeats or separate records; there may be more than shown. ± marks the error that the study gave.

NC[C@@H](C(=O)Nc1ccc(-c2cn[nH]c2)cc1)c1ccccc1 — IOP (tonometry; Macaca cyclopis, ocular normotensive; ocular, 0.1%, 8 h): 16.3 mmHg
C[C@@H](Nc1c(-c2c(F)cc(C#N)cc2F)c(Cl)nc2ncnn12)C(C)(C)C — Iba1 microglial staining (male PS19 tau transgenic mice, brain; intraperitoneal, 3 mg/kg twice weekly, 3 months; baseline: vehicle): decreased
CN1CCC[C@]1(C)/C=C/S(=O)(=O)NC(=O)Nc1c2c(cc3c1CCC3)CCC2 — IL-18 inhibition (human, whole blood ex vivo; 250 mg single dose, 12 h, single ascending dose, with: LPS and ATP): 105%
COc1c(Cl)cccc1Nc1c(-c2ccncc2C#C[C@@]2(C)CCCN2C(=O)/C=C/CN(C)C)[nH]c2c1C(=O)NCC2 — tumour regression (NCI-H2073 EGFR SVD knock-in xenograft, BALB/c nude mice; oral, 50 mg/kg once daily, 21 days, regression if TGI above 100 %): 35.8%
COc1ccc(C(=O)CCc2cc(C(CCc3ccc(O)cc3OC)c3ccc(O)cc3)c(O)cc2OC)cc1 (racemic) — LTB4 isomers level (human blood; 10 µM, with: A23187): 374 ± 147 pg/mL
CC(C)[C@H](NC(=O)[C@H](CC(=O)O)NC(=O)[C@@H](NC(=O)[C@H](Cc1c[nH]c2ccccc12)NC(=O)[C@H](CCC(=O)O)NC(=O)[C@H](C)NC(=O)[C@H](CC(=O)O)NC(=O)CNC(=O)[C@H](Cc1ccc(O)cc1)NC(=O)[C@H](Cc1ccc(OP(=O)(O)O)cc1)NC(=O)[C@H](Cc1ccc(O)cc1)NC(=O)CCNC(=O)c1ccc(C(=O)[O-])c(-c2c3ccc(=[N+](C)C)cc-3oc3cc(N(C)C)ccc23)c1)C(C)C)C(=O)N[C@@H](CO)C(=O)O — plaque area (Oil Red O staining; ApoE-/- mice high-fat diet, aorta; iv, 3.65 mg/kg every three days, 21 days): 24.9 ± 1.7%
COC1CN([C@H]2CC[C@H]([C@@]3(C)Oc4c(Cl)cc(C(=O)NCc5c(SC)cc(C)[nH]c5=O)c(C)c4O3)CC2)C1 — log2 fold change (RNA-seq, refers to: LPAR1 mouse homolog; mouse, HT-1376 xenograft, whole blood; dose not given; baseline: vehicle): 0.872
COc1cc(O)ccc1CCC(c1ccc(O)cc1)c1cc2c(c(C)c1O)OC(c1ccc(O)cc1)CC2 (mixture of isomers) — LTB4 level (human blood; 3 µM, with: A23187): 1280 ± 377 pg/mL
CCCCCCCCCCCCCCCC(=O)OCC(CSC[C@H](N)C(=O)N[C@@H](CO)C(=O)N[C@@H](CCCCN)C(=O)N[C@@H](CCCCN)C(=O)N[C@@H](CCCCN)C(=O)N[C@@H](CCCCN)C(=O)NCCCCCC(=O)N[C@@H](CCCCN)C(=O)N[C@@H](CC(C)C)C(=O)N[C@H](C(=O)N[C@@H](Cc1ccccc1)C(=O)N[C@@H](Cc1ccccc1)C(=O)N[C@@H](Cc1ccc2ccccc2c1)C(=O)O)C(C)C)OC(=O)CCCCCCCCCCCCCCC (stereo partly drawn) — Iba1 level (APP/PS1 transgenic mouse, hippocampus; intrahippocampal, dose not given, 10 d, unit not given; baseline: injected over adjacent side): 1.2 and 0.525 and 0.875 and 1.47 and 1.21
COc1ccc(NC(=O)c2ccc3[nH]c(-c4ccc(N(C)C)cc4)nc3c2)cn1 — tumour volume (CT26, BALB/c nude mice, subcutaneous graft; dose not given, day 2): 69.3 mm3 and 229 mm3 and 104 mm3 and 239 mm3 and 60 mm3
COCCOCCOCCNC(=O)Cc1cc(CC(=O)N[C@H]2C[C@H]3C(=O)Nc4cc(OCCOCCOCCOC)cc(n4)C(=O)N4CCC[C@H]4C(=O)Nc4cc(OCCOCCOCCOC)cc(n4)C(=O)N4CCC[C@H]4C(=O)Nc4cc(OCCOCCOCCOC)cc(n4)C(=O)N3C2)cc(CC(=O)N[C@H]2C[C@H]3C(=O)Nc4cc(OCCOCCOCCOC)cc(n4)C(=O)N4CCC[C@H]4C(=O)Nc4cc(OCCOCCOCCOC)cc(n4)C(=O)N4CCC[C@H]4C(=O)Nc4cc(OCCOCCOCCOC)cc(n4)C(=O)N3C2)c1 — ΔH (anion binding, ITC; water/acetonitrile 95 vol% (98.2 mol%); 298 K, with: sodium iodide): -6.1 ± 0.2 kJ/mol
CC(CCC(=O)NCc1ccc(C(=O)NO)cc1)C1CCC2C3C(O)CC4CC(O)CCC4(C)C3CCC12C (stereo not drawn) — relative abundance (refers to: UDCA; PCK rat (Pkhd1 mutant), liver; oral gavage, dose not given, 5 months; baseline: total bile acids): 0.21%
Cc1c(C)c2cccnc2c2ncccc12.O=[N+]([O-])[O-].O=c1c(C=NN=C([S-])Nc2ccccc2)coc2ccccc12.[Cu+2] — supercoiled DNA form (oxidative DNA cleavage; supercoiled pUC19 DNA; 100 µM, 30 min, with: ascorbic acid 50 µM, DNA 40 µM): 0%
Cc1cccc(C)c1CNc1cc(C(=O)N2CCC2)cn2c(C)c(C)nc12 — gastric lesion area (rat, indomethacin-induced ulcer; oral, 2 mg/kg, 6 h, with: indomethacin 40 mg/kg): 4.7 ± 3 mm²
COc1ccccc1-c1ccncc1C(=O)Nc1nnc(OCc2ccc(Cl)cc2)s1 — colony survival (Brca1 Δ11/Δ11 MEF sgGFP, Mus musculus; 1.25 µM, mean of all runs; baseline: 0 µM): 88%
COCC1CN(C2CCN(c3cc(OC)c(Nc4ncc(Br)c(Nc5ccc6c(c5P(C)(C)=O)OCCO6)n4)cc3C)CC2)C1 — partial response (RECIST 1.1; advanced EGFR-mutant NSCLC patients; 90 mg once daily): 0%
CC(=O)[O-].O.[Cu+2].[O-]c1ccc(Br)cc1C=NCCN1CCOCC1 — ferric reducing power (FRAP; 160 µM): 43%
O=S(=O)(NCc1ccncc1)c1ccc(C2CCCCC2)cc1 — PU.1+ nuclei reduction (immunohistochemistry; CK-p25 mice female, hippocampus; ip, 0.3 mg/kg daily, 6 wk; baseline: vehicle): ~25%

Excerpt of the above:
COc1cc(O)ccc1CCC(c1ccc(O)cc1)c1cc2c(c(C)c1O)OC(c1ccc(O)cc1)CC2 (mixture of isomers) — LTB4 level (human blood; 3 µM, with: A23187): 1280 ± 377 pg/mL
CCCCCCCCCCCCCCCC(=O)OCC(CSC[C@H](N)C(=O)N[C@@H](CO)C(=O)N[C@@H](CCCCN)C(=O)N[C@@H](CCCCN)C(=O)N[C@@H](CCCCN)C(=O)N[C@@H](CCCCN)C(=O)NCCCCCC(=O)N[C@@H](CCCCN)C(=O)N[C@@H](CC(C)C)C(=O)N[C@H](C(=O)N[C@@H](Cc1ccccc1)C(=O)N[C@@H](Cc1ccccc1)C(=O)N[C@@H](Cc1ccc2ccccc2c1)C(=O)O)C(C)C)OC(=O)CCCCCCCCCCCCCCC (stereo partly drawn) — Iba1 level (APP/PS1 transgenic mouse, hippocampus; intrahippocampal, dose not given, 10 d, unit not given; baseline: injected over adjacent side): 1.2 and 0.525 and 0.875 and 1.47 and 1.21
COc1ccc(NC(=O)c2ccc3[nH]c(-c4ccc(N(C)C)cc4)nc3c2)cn1 — tumour volume (CT26, BALB/c nude mice, subcutaneous graft; dose not given, day 2): 69.3 mm3 and 229 mm3 and 104 mm3 and 239 mm3 and 60 mm3
